Measured values of several laboratories.
Lines come from different studies, so protocols differ.
Organism: Staphylococcus aureus

Compound	test	system	setting	MIC
CN[C@H](CC(C)C)C(=O)N[C@H]1C(=O)N[C@@H](CC(N)=O)C(=O)N[C@H]2C(=O)N[C@H]3C(=O)N[C@H](C(=O)N[C@H](C(=O)O)c4cc(O)cc(O)c4-c4cc3ccc4O)[C@H](O)c3ccc(c(Cl)c3)Oc3cc2cc(c3O[C@@H]2O[C@H](CO)[C@@H](O)[C@H](O)[C@H]2O[C@H]2C[C@](C)(NCc3ccc(OCc4cn(CC(=O)N[C@H](C(=O)N[C@@H](CCN)C(=O)N[C@H]5CCNC(=O)[C@H]([C@@H](C)O)NC(=O)[C@H](CCN)NC(=O)[C@H](CCN)NC(=O)[C@H](CC(C)C)NC(=O)[C@@H](CC(C)C)NC(=O)[C@H](CCN)NC5=O)[C@@H](C)O)nn4)c(OC)c3)[C@H](O)[C@H](C)O2)Oc2ccc(cc2Cl)[C@H]1O		VRSA 2 vanA		24 µM
COc1ccc2ccc(O)c(/C=N/[C@H]3CCCC[C@H]3/N=C/c3ccccc3O)c2c1	bacterial growth, broth microdilution	vancomycin-intermediate		> 40 µM
CCCCCCCCCCCC(=O)C(C)C(=O)N1CCC[C@H]1C(=O)NC(C)(C)C(=O)NC(C)(C)C(=O)NC(C)(C)C(=O)N[C@](C)(CC)C(=O)NCCC(=O)N[C@@H](C)C(=O)N[C@](C)(CC)C(=O)N[C@@H](C)C(=O)N[C@@H](CC(C)C)C(=O)N[C@](C)(CC)C(=O)NCCC(=O)N[C@@H](C)C(=O)N[C@](C)(CC)C(=O)NCCC(=O)N[C@@H](C)C(=O)NC(C)(C)C(=O)NC(C)(C)C(=O)NC(C)(C)C(=O)N[C@@H](C)C(=O)N[C@@H](CC(=O)O)C(=O)O (stereo partly shown)		ATCC 29213		> 128 µg/mL
CN[C@H](CC(C)C)C(=O)N[C@H]1C(=O)N[C@@H](CC(N)=O)C(=O)N[C@H]2C(=O)N[C@H]3C(=O)N[C@H](C(=O)N[C@H](C(=O)O)c4cc(O)cc(O)c4-c4cc3ccc4O)[C@H](O)c3ccc(c(Cl)c3)Oc3cc2cc(c3O[C@@H]2O[C@H](CO)[C@@H](O)[C@H](O)[C@H]2O[C@H]2C[C@](C)(NCc3ccc(OCc4cn(CCCCC(=O)N[C@H](C(=O)N[C@@H](CCN)C(=O)N[C@H]5CCNC(=O)[C@H]([C@@H](C)O)NC(=O)[C@H](CCN)NC(=O)[C@H](CCN)NC(=O)[C@H](CC(C)C)NC(=O)[C@@H](CC(C)C)NC(=O)[C@H](CCN)NC5=O)[C@@H](C)O)nn4)c(OC)c3)[C@H](O)[C@H](C)O2)Oc2ccc(cc2Cl)[C@H]1O		VRSA 2 vanA		48 µM
Cc1ccc2[nH]c3c(c2c1)CCCC3NCCc1ccc(O)cc1 (stereo not shown)	broth microdilution	ATCC 29213		16 µg/mL
CN[C@@H]1[C@H](O)[C@H](NC)[C@H]2O[C@]3(O)[C@H](O[C@@H]2[C@H]1O)O[C@H](C)C[C@H]3NC(=O)Cc1ccc(Cl)cn1	microbial growth, broth dilution	8325		12.5 µg/mL
CC[C@H](C)[C@@H]1NC(=O)[C@H](CO)NC(=O)C(C)(CCCCN)NC(=O)[C@@H]2CSSC[C@@H](C(=O)N[C@@H](Cc3ccc(O)cc3)C(N)=O)NC(=O)[C@H](CCCCN)NC(=O)[C@@H]3CSSC[C@H](NC(=O)[C@H](CCCNC(=N)N)NC(=O)C(C)(CC(C)C)NC(=O)[C@H](CC(=O)O)NC(=O)[C@H](CC(=O)O)NC(=O)[C@H](CCC(=O)O)NC(=O)[C@H](CC(N)=O)NC(=O)[C@H](Cc4c[nH]c5ccccc45)NC(=O)[C@@H]4CCCN4C(=O)CNC(=O)[C@H](CC(N)=O)NC(=O)[C@@H](NC(=O)CNC(=O)[C@H](Cc4ccccc4)NC(=O)CN)CSSC[C@H](NC(=O)[C@H](Cc4ccc(O)cc4)NC(=O)CNC(=O)CNC(=O)[C@H](CCCCN)NC(=O)[C@H](Cc4ccc(O)cc4)NC(=O)CNC(=O)[C@H](CCCCN)NC1=O)C(=O)N[C@@H](C)C(=O)N[C@@H](CCCCN)C(=O)NCC(=O)NCC(=O)N[C@@H](Cc1ccccc1)C(=O)N[C@@H](C(C)C)C(=O)N3)C(=O)N[C@@H](Cc1c[nH]cn1)C(=O)NC(C)(C)C(=O)N[C@@H](Cc1c[nH]cn1)C(=O)N2 (stereo partly shown)		469, methicillin-resistant mecA, cation-adjusted Mueller Hinton broth	18 h, 37 °C	0.5 µM
c1ccc(CN2CCOCCOCCN(CCCCCCCCCCN3CCOCCOCCN(CCCCCCCCCCN4CCOCCOCCN(Cc5ccccc5)CCOCCOCC4)CCOCCOCC3)CCOCCOCC2)cc1		1199B (NorA overexpressing)		16 µM
CC(C)C[C@H](NC(=O)[C@H](CCC(=O)O)NC(=O)[C@H](C)NC(=O)[C@H](CC(C)C)NC(=O)[C@H](CCC(=O)O)NC(=O)[C@H](C)NC(=O)[C@H](CCC(N)=O)NC(=O)[C@H](CC(C)C)NC(=O)[C@H](CCC(=O)O)NC(=O)[C@H](Cc1ccc(O)cc1)NC(=O)[C@H](CC(C)C)NC(=O)[C@H](CCC(N)=O)NC(=O)[C@H](C)NC(=O)[C@H](CCC(=O)O)NC(=O)[C@H](CC(C)C)NC(=O)[C@H](CCC(N)=O)NC(=O)[C@H](C)NC(=O)[C@H](CC(C)C)NC(=O)[C@H](CCC(=O)O)NC(=O)[C@H](C)NC(=O)[C@@H](N)CCC(N)=O)C(N)=O	broth microdilution	ATCC 6538	24 h	> 250 µM
CC[C@H](C)[C@H](NC(=O)[C@@H](CCC(=O)O)NC(=O)[C@H](CC(C)C)NC(=O)c1cccc(-c2ccccn2)n1)C(=O)N[C@H]1CCCCNC(=O)[C@H](CC(N)=O)NC(=O)[C@@H](CC(=O)O)NC(=O)[C@H](Cc2c[nH]cn2)NC(=O)[C@@H](Cc2ccccc2)NC(=O)[C@H]([C@@H](C)CC)NC(=O)[C@@H](CCCN)NC1=O		USA300 methicillin-resistant	18 h, 37 °C, 0.3 mM ZnSO4 LB	> 64 µg/mL
C=C(NC(=O)c1csc(-c2nc3c(cc2O)-c2nc(cs2)C(=O)NC(C(C)O)C(=O)NC(=C(C)OC)c2nc(cs2)C(=O)NC2c4nc(cs4)C(=O)NC(COC(=O)c4c5c6c(cccc6n4O)COC(=O)C(OC4CC(C)(O)C(N(C)C)C(C)O4)C2OC5)c2nc-3cs2)n1)C(N)=O (stereo not shown)		MRSA strain 5		0.0156 µg/mL
CC[C@H](C)[C@H](NC(=O)[C@@H]1CCCN1C(=O)CNC(=O)[C@H](CC(C)C)NC(=O)[C@H](CCCCN)NC(=O)[C@H](CCCNC(=N)N)NC(=O)[C@H](Cc1c[nH]c2ccccc12)NC(=O)[C@H](C)NC(=O)[C@H](CC(N)=O)NC(=O)[C@H](CCCCN)NC(=O)[C@H](CC(C)C)NC(=O)[C@H](CCCCN)NC(=O)[C@H](CC(N)=O)NC(=O)[C@H](CCCNC(=N)N)NC(=O)[C@H](C)NC(=O)[C@H](CCCNC(=N)N)NC(=O)[C@H](CCCNC(=N)N)NC(=O)[C@H](Cc1ccccc1)NC(=O)[C@H](Cc1c[nH]c2ccccc12)NC(=O)CN)C(=O)N[C@H](C(=O)NCC(=O)N1CCC[C@H]1C(=O)N[C@@H](CC(C)C)C(=O)N[C@@H](CC(C)C)C(=O)N[C@H](C(=O)N[C@@H](CCCNC(=N)N)C(=O)O)[C@@H](C)O)C(C)C	broth microdilution	ATCC 25923, Mueller-Hinton broth	16 to 20 h, 37 °C	1.1 µg/mL
CC[C@H](C)[C@H](NC(=O)[C@@H](CCCNC(=N)N)NC(=O)[C@H](CCCNC(=N)N)NC(=O)[C@H](CC(C)C)NC(=O)[C@H](Cc1c[nH]c2ccccc12)NC(=O)[C@H](CCCNC(=N)N)NC(=O)[C@@H]1CCCN1C(=O)[C@H](CCCNC(=N)N)NC(=O)[C@@H]1CCCN1C(=O)[C@H](CC(C)C)NC(=O)[C@H](Cc1ccc(O)cc1)NC(=O)[C@@H]1CCCN1C(=O)[C@@H]1CCCN1C(=O)[C@H](CCCCN)NC(=O)[C@H](CC(=O)O)NC(=O)[C@@H](N)C(C)C)C(=O)N[C@@H](Cc1ccc(O)cc1)C(=O)N[C@@H](CC(N)=O)C(=O)N[C@H](CCCNC(=N)N)C(N)=O	broth microdilution	DSM 6247	18 h, 37 °C, 25% MHB2	64 µg/mL
CC(C)C[C@@H]1NC(=O)[C@H](CCCCN)NC(=O)C(N)CCC=CCCCC(C(N)=O)NC(=O)[C@H](CCCCN)NC(=O)[C@H](CC(C)C)NC(=O)[C@H](CCCCN)NC(=O)C2CCCC=CCCC(NC(=O)[C@H](CCCCN)NC1=O)C(=O)N[C@@H](CCCCN)C(=O)N1CCC[C@@H]1C(=O)NCC(=O)N[C@@H](CCCCN)C(=O)N2 (stereo partly shown)	broth microdilution	ATCC 29737, Mueller-Hinton broth	18 h, 37 °C	128 µM
N=C(N)NCCC[C@@H]1NC(=O)[C@H](CCCNC(=N)N)NC(=O)[C@@H](CCCNC(=N)N)NC(=O)[C@@H](CCCNC(=N)N)NC(=O)[C@@H](C(c2ccccc2)c2ccccc2)NC(=O)[C@H](Cc2c[nH]c3ccccc23)NC(=O)[C@@H](C(c2ccccc2)c2ccccc2)NC1=O		1193193, MRSA		8 µg/mL
CC[C@H](C)[C@@H]1NC(=O)[C@@H]([C@@H](C)O)NC(=O)CNC(=O)[C@H](CC(=O)O)NC(=O)CNC(=O)[C@H](CC(=O)O)NC(=O)CNC(=O)[C@H]2CCCCN2C(=O)[C@@H](NC(=O)[C@H](CC(=O)O)NC(=O)/C=C/CCCCCCCCCC(C)C)CNC(=O)[C@@H]2CCCN2C1=O	broth microdilution	BR-VRSA strain 880, Mueller-Hinton broth, Mg2+ 10 mg/L	16 h, added: Ca2+ 5 mM	4 µg/mL
CC1COC2=C1C(=O)C(=O)c1c2ccc2c1C(OC(=O)CNC(=O)CN)CCC2(C)C (mixture of isomers)		GDMCC 1.122	48 h	31 µM
CC[C@H](C)[C@H](NC(=O)[C@@H](CCCNC(=N)N)NC(=O)[C@H](CCCNC(=N)N)NC(=O)[C@@H]1CCCN1C(=O)[C@@H]1CCCN1C(=O)[C@H](CCCNC(=N)N)NC(=O)[C@@H]1CCCN1C(=O)[C@H](CCCNC(=N)N)NC(=O)[C@@H]1CCCN1C(=O)[C@H](CC(C)C)NC(=O)[C@H](Cc1c[nH]c2ccccc12)NC(=O)[C@@H]1CCCN1C(=O)[C@@H]1CCCN1C(=O)[C@H](CCCCN)NC(=O)[C@H](CC(=O)O)NC(=O)[C@@H](N)C(C)C)C(=O)N[C@@H](Cc1ccc(O)cc1)C(=O)N[C@@H](CC(N)=O)C(=O)N[C@H](CCCNC(=N)N)C(N)=O	broth microdilution	DSM 6247	18 h, 37 °C, 25% MHB2	128 µg/mL
C#CCNC(=O)[C@H]1NC(=O)[C@H]2NC(=O)[C@H](NC(=O)[C@@H]3NC(=O)[C@H](CC(N)=O)NC(=O)[C@H](NC(=O)[C@@H](CC(C)C)NC)[C@H](O)c4ccc(c(Cl)c4)Oc4cc3cc(c4O[C@@H]3O[C@H](CO)[C@@H](O)[C@H](O)[C@H]3O[C@H]3C[C@](C)(N)[C@H](O)[C@H](C)O3)Oc3ccc(cc3Cl)[C@H]2O)c2ccc(O)c(c2)-c2c(O)cc(O)cc21		MRSA USA300		0.336 µM

Excerpt of the above:
Compound	test	system	setting	MIC
c1ccc(CN2CCOCCOCCN(CCCCCCCCCCN3CCOCCOCCN(CCCCCCCCCCN4CCOCCOCCN(Cc5ccccc5)CCOCCOCC4)CCOCCOCC3)CCOCCOCC2)cc1		1199B (NorA overexpressing)		16 µM
